Measured values collected from several papers.
Lines come from different studies, so protocols differ. ± marks the error that the study gave.
CYP2C8: Cytochrome P450 2C8 (CYP2C8, Homo sapiens, UniProt P10632)
Chain of UniProt P10632 (whole entry, looked up): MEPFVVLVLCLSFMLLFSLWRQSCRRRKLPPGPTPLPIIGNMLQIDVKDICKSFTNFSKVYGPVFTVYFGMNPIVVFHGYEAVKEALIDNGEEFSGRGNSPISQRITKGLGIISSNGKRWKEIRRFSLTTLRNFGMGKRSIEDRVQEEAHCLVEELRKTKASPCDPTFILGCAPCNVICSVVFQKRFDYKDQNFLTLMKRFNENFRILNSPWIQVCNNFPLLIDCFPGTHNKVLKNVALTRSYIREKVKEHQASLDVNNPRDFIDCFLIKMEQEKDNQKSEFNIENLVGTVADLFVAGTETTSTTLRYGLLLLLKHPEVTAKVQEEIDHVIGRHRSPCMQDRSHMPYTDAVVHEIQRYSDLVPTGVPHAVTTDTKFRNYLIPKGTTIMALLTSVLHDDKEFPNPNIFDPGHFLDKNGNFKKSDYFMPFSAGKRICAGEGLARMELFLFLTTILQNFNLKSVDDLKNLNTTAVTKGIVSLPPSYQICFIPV
sspA: Glutamyl endopeptidase (sspA, Staphylococcus aureus, UniProt P0C1U8)
Chain of UniProt P0C1U8 (whole entry, looked up): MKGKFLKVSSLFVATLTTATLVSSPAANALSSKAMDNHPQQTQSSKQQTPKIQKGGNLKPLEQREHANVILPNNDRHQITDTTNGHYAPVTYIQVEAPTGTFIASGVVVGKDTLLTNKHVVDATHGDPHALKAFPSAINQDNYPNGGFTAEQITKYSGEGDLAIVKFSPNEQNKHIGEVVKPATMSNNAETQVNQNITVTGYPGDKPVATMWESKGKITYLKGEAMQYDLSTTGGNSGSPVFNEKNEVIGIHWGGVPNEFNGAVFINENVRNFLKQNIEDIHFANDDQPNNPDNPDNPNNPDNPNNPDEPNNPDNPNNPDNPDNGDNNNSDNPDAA
Chain of UniProt O89049 (whole entry, looked up): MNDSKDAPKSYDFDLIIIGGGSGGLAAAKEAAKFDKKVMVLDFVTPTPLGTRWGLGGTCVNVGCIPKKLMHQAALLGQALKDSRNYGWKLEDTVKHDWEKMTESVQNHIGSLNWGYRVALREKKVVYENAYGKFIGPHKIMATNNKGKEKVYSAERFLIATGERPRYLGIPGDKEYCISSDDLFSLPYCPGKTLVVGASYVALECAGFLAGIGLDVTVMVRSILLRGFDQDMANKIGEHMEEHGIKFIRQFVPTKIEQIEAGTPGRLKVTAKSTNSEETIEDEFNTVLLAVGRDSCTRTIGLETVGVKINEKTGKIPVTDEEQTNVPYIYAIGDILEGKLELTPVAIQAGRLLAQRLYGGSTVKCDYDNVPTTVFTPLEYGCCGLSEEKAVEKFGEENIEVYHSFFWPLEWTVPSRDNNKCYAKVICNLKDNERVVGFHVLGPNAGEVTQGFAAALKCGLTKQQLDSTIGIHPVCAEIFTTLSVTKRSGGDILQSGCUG
Chain of UniProt P11712 (whole entry, looked up): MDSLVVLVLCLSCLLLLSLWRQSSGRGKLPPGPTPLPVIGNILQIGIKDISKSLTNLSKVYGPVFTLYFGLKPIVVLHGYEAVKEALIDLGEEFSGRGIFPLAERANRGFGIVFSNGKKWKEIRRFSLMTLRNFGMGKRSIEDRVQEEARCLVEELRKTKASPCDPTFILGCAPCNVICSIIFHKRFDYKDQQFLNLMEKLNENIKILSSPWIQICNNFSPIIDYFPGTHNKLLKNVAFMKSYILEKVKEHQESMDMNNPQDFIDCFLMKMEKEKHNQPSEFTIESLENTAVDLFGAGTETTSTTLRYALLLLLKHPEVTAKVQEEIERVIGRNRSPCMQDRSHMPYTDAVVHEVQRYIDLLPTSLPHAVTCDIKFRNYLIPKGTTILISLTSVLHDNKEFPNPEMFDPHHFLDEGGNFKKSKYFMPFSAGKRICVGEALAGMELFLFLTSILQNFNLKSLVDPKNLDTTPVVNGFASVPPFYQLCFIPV
Chain of UniProt P09622 (whole entry, looked up): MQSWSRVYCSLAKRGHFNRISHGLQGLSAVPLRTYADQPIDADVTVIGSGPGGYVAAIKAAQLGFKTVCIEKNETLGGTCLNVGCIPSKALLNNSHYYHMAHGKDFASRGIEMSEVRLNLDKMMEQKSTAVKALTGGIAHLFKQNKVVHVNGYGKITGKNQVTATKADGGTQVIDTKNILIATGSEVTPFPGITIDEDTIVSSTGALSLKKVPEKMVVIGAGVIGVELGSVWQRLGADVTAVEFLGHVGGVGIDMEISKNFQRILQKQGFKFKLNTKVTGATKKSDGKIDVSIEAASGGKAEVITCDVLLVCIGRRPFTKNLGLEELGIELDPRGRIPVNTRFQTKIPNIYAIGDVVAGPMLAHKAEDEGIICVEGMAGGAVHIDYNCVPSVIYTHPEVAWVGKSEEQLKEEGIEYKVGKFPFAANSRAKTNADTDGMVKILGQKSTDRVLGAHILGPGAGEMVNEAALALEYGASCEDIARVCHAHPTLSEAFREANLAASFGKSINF
Chain of UniProt Q06520 (whole entry, looked up): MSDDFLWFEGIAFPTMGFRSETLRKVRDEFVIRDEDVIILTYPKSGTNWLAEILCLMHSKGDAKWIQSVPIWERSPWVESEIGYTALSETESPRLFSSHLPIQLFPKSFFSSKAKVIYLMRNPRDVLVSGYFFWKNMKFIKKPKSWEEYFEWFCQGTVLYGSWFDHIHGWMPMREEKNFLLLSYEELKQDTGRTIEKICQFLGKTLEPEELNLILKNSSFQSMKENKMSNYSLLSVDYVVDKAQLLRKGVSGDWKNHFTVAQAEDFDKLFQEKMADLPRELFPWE
Chain of UniProt P33261 (whole entry, looked up): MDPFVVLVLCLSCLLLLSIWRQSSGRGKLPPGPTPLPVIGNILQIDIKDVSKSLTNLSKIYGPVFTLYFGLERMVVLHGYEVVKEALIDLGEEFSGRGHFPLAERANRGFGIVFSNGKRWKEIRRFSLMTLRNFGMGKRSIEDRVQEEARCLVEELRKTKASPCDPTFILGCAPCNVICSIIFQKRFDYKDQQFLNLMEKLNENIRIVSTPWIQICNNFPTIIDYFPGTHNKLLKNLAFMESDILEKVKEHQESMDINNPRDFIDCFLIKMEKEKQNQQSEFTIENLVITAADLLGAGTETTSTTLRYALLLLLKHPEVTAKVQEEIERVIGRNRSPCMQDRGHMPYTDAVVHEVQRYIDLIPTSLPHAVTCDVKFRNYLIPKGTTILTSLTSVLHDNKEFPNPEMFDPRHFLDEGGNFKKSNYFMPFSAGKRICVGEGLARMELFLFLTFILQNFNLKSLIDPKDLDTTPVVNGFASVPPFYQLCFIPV
Chain of UniProt P33527 (whole entry, looked up): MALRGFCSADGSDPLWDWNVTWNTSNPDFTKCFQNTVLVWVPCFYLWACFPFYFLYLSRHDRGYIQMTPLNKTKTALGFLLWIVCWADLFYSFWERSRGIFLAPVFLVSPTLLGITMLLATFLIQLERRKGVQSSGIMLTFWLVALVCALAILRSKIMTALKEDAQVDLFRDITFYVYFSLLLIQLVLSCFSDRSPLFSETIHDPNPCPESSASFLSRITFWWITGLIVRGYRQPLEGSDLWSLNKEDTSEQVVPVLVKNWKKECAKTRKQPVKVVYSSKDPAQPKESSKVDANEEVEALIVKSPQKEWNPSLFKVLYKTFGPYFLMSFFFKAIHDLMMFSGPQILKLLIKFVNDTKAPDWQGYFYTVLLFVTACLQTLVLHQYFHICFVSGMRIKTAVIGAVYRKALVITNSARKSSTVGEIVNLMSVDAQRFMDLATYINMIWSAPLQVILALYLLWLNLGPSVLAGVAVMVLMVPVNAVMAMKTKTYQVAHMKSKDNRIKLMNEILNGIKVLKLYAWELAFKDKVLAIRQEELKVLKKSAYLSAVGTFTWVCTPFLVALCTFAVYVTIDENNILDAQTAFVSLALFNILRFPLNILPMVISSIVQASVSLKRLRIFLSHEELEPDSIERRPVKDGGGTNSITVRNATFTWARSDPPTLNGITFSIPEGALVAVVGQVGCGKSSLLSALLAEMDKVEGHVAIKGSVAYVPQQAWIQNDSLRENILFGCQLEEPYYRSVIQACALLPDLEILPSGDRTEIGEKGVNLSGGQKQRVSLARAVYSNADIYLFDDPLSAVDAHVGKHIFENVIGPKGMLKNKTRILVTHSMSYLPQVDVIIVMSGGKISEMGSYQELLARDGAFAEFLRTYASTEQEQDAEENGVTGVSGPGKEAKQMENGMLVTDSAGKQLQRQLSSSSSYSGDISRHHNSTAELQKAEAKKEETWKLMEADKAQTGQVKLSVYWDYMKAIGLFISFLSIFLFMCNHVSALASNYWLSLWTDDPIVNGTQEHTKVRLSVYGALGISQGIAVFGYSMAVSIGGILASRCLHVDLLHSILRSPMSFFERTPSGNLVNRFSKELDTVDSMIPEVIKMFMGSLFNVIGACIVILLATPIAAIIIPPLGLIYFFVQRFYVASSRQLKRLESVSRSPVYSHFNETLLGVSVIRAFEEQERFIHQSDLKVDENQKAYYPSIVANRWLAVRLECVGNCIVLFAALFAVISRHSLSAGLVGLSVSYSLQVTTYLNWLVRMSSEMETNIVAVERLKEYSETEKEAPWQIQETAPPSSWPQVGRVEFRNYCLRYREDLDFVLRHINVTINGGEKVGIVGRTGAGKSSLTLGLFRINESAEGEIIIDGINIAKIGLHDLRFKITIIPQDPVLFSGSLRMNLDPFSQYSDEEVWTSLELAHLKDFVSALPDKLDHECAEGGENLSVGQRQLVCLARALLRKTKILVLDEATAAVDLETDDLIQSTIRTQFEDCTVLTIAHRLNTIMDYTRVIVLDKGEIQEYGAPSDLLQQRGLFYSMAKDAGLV
Chain of UniProt P61073 (whole entry, looked up): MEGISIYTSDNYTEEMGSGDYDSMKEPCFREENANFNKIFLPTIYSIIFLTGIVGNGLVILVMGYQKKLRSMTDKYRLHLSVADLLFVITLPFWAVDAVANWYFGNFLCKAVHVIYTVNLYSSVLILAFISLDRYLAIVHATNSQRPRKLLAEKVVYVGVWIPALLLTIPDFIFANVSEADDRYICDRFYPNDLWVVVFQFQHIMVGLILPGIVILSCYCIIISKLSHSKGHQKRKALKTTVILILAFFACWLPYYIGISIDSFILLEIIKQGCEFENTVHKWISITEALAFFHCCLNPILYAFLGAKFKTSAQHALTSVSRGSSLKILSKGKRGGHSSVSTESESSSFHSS

| Structure (SMILES) | target | assay | system | conditions | how to read | endpoint | value |
| --- | --- | --- | --- | --- | --- | --- | --- |
| Cc1ccc2nc(C)c(C(=O)NCc3ccc(C(F)(F)F)cc3)n2c1 | CYP2C8 | inhibitor | – | – | – | IC50 | > 20 µM |
| C=CC(=O)Nc1cc(Nc2nccc(-c3cn(C)c4ccccc34)n2)c(OCC(F)(F)F)nc1N(C)CCN(C)C | Cytochrome P450 3A4 (CYP3A4, Homo sapiens, UniProt P08684) | enzyme activity, inhibitor | human, liver microsomes | 3.33 µM, midazolam probe | – | activity vs control | 78.4% |
| CC(=O)N1CCC[C@H]1C(=O)N[C@@H](CC(C)C)C(=O)N[C@@H](Cc1c[nH]cn1)C(=O)N[C@@H](CO)C(=O)N[C@H](C(N)=O)[C@@H](C)CP(=O)(OCOC(=O)C(C)(C)C)OCOC(=O)C(C)(C)C | pig liver esterase | substrate | – | 200 µM, 8 h, pH 7.4, 37 °C | – | conversion to free peptide | 20% |
| CNC(=O)Oc1cc(C)c([S+](C)[O-])c(C)c1 (centres unmarked) | Cytochrome P450 2C9 (CYP2C9, Homo sapiens, UniProt P11712) | inhibitor | human liver microsomes | 10 µM, pH 7.4, together with: diclofenac | – | inhibition | 4.82% |
| CCN(CC)CCOc1ccc(-c2nnn(Cc3ccc(OC)cc3)c2N)cc1 | SLC47A2 (Homo sapiens, UniProt Q86VL8) | transporter uptake, inhibitor | – | – | – | IC50 | 1.25 µM |
| CNC(=O)Oc1cc(C)c(S(C)(=O)=O)c(C)c1 | CYP2C8 | – | human liver microsomes | 10 µM, pH 7.4, together with: paclitaxel | – | inhibition | < 0% |
| CCn1c(-c2ccc(-c3ccc(F)cc3)cc2)c(-c2ccc(-c3ccc(F)cc3)cc2)n(CC)c1=[Se+][Au-][P+](CC)(CC)CC.Cl | Txnrd1 (Rattus norvegicus, UniProt O89049) | enzyme activity, inhibitor | – | – | – | IC50 | 0.0166 µM |
| CC[C@H](C)[C@H](NC(=O)[C@H](CCCNC(=N)N)NC(=O)[C@H](CCC(N)=O)NC(=O)[C@@H](NC(=O)[C@@H](NC(=O)[C@H](CCCNC(=N)N)NC(=O)[C@H](CCCCN)NC(=O)[C@H](Cc1ccccc1)NC(=O)CN)[C@@H](C)CC)C(C)C)C(=O)N[C@@H](CCCCN)C(=O)N[C@@H](CC(=O)O)C(=O)N[C@@H](Cc1ccccc1)C(=O)N[C@@H](CC(C)C)C(=O)N[C@@H](CCCNC(=N)N)C(=O)N[C@@H](CC(N)=O)C(=O)N[C@@H](CC(C)C)C(=O)N[C@H](C(N)=O)C(C)C | sspA | substrate, tricine SDS-PAGE | – | pH 8, 37 °C, together with: peptide:protease 40:1 | – | stability time | < 24 h |
| CC(C)(O)c1ccccc1CC[C@H](c1cccc(/C=C/c2ccc3ccc(Cl)cc3n2)c1)[S+]([O-])CC1(CC(=O)O)CC1 (some centres unmarked) | CYP2C8 | – | human liver microsomes | 10 µM, pH 7.4, together with: paclitaxel | – | inhibition | 97.3% |
| Cc1ccc(C[C@H](NC(=O)CN)C(=O)N[C@@H](CCCCN)C(=O)N[C@@H](CCCNC(=N)N)C(=O)N[C@H](CC(C)C)C(=O)N[C@H](C(=O)N[C@@H](CCC(N)=O)C(=O)N[C@@H](CCCNC(=N)N)C(=O)N[C@H](CC(C)C)C(=O)N[C@@H](CCCCN)C(=O)N[C@@H](CC(=O)O)C(=O)N[C@@H](Cc2c[nH]c3ccccc23)C(=O)N[C@H](CC(C)C)C(=O)N[C@@H](CCCNC(=N)N)C(=O)N[C@@H](CCCCN)C(=O)N[C@@H](CC(C)C)C(=O)N[C@H](C(N)=O)C(C)C)C(C)C)cc1 | sspA | substrate, SDS-PAGE | – | 24 h, pH 7.4, 37 °C | – | proteolytic stability | stable |
| CN1C(=O)[C@@H](Cc2ccc(O)cc2)NC(=O)CNC(=O)[C@H](Cc2ccc3ccccc3c2)NC(=O)[C@H](CCCNC(=N)N)NC(=O)[C@H]1CCCNC(=O)c1ccc(CNC(=O)CN2CCN(CC(=O)O)CCN(CC(=O)O)CCN(CC(=O)O)CC2)cc1 [gallium-68 labelled] | CXCR4 (Homo sapiens, UniProt P61073) | PET | human, FDG-avid maxillary focus (dental infection) | – | – | uptake | negative |
| C[C@]12CC[C@H](O)CC1CCC1C2[C@H](O)C(=O)[C@]2(C)[C@@H](c3ccc(=O)oc3)CC[C@]12O (some centres unmarked) | SULT2A1 (Homo sapiens, UniProt Q06520) | substrate | recombinant human enzyme | 1 µM, 60 min, pH 7.4 | – | sulfation rate | 0.021 nmol/min/mg enzyme |
| O=C1Cc2cc(CCN3CCN(C4=NS(=O)(=O)c5ccccc54)CC3)c(Cl)cc2N1 | CYP2C8 | – | human liver microsomes | 2 µM, pH 7.4, together with: paclitaxel | – | inhibition | < 0% |
| CC[C@@H]1CN2CCc3c([nH]c4cccc(OC)c34)[C@@H]2C[C@@H]1/C(=C\OC)C(=O)OC | CYP2C19 (Homo sapiens, UniProt P33261) | substrate | recombinant human enzyme | 2 µM, 60 min, pH 7.4 | – | remaining substrate | 77% |
| CC(C)(O)c1ccccc1CC[C@H](c1cccc(/C=C/c2ccc3ccc(Cl)cc3n2)c1)S(=O)(=O)CC1(CC(=O)O)CC1 | CYP2C8 | – | human liver microsomes | 10 µM, pH 7.4, together with: paclitaxel | – | inhibition | 96.5% |
| [64Cu+2].c1ccc(CNCc2ccc(CN3CCCNCCNCCCNCC3)cc2)nc1 | CXCR4 | – | NOD/SCID mouse, U87 and U87-stb-CXCR4 xenografts, blood | iv, 90 min, no blocking dose, ex vivo | – | tissue uptake | 0.83 ± 0.24 %ID/g |
| NCCCC[C@H](NC(=O)[C@H](Cc1ccc(O)cc1)NC(=O)[C@H](CCCCN)NC(=O)[C@H](Cc1c[nH]c2ccccc12)NC(=O)[C@H](Cc1ccccc1)NC(=O)[C@H](Cc1ccccc1)NC(=O)Cc1ccc(-c2ccccc2)cc1)C(=O)NCC(=O)N[C@@H](Cc1c[nH]cn1)C(=O)N1CCC[C@H]1C(=O)NCC(=O)NCC(=O)N1CCC[C@H]1C(=O)N[C@@H](CCC(N)=O)C(=O)N[C@@H](CC(=O)O)C(=O)N[C@@H](CC(=O)O)C(=O)N[C@@H](CC(=O)O)C(=O)N[C@@H](CC(=O)O)C(=O)N[C@@H](CC(=O)O)C(=O)N[C@@H](CC(=O)O)C(=O)O | cathepsin K (human, recombinant) | substrate, LC-MS | – | 64 µM, pH 5.5, 37 °C, 0.1% DMSO | – | half-life | 2.29 h |
| C=CCc1ccc(O)c(-c2cc(CC=C)cc(O)c2O)c1 | ABCC1 (Homo sapiens, UniProt P33527) | calcein-AM efflux | – | 10 µM | baseline: verapamil 30 µM | inhibition | 3.3 ± 2.8% |
| Cc1cc(S(=O)(=O)N(C)CC(=O)Nc2ccn(C)c(=O)c2)c2[nH]ncc2c1 | DLD (Homo sapiens, UniProt P09622) | binding, SPR | – | – | – | dissociation half-life | 2 min |
| CCCS(=O)(=O)c1ccc2[nH]c(NC(=O)OC)nc2c1 | CYP2C8 | – | human liver microsomes | 2 µM, pH 7.4, together with: paclitaxel | – | inhibition | < 0% |

Excerpt of the above:
| Structure (SMILES) | target | assay | system | conditions | how to read | endpoint | value |
| --- | --- | --- | --- | --- | --- | --- | --- |
| CNC(=O)Oc1cc(C)c(S(C)(=O)=O)c(C)c1 | CYP2C8 | – | human liver microsomes | 10 µM, pH 7.4, together with: paclitaxel | – | inhibition | < 0% |
| [64Cu+2].c1ccc(CNCc2ccc(CN3CCCNCCNCCCNCC3)cc2)nc1 | CXCR4 | – | NOD/SCID mouse, U87 and U87-stb-CXCR4 xenografts, blood | iv, 90 min, no blocking dose, ex vivo | – | tissue uptake | 0.83 ± 0.24 %ID/g |
